Measurements of several laboratories.
Each line is one published result; not all experiments were run side by side. Numbers after ± are the reported error.
Cell line: HCT-116

Structure (SMILES) | test | conditions | how to read | quantity | value
CCCN1CCN(c2ccc3[nH]c(-c4ccc5[nH]c(-c6cc(OC)c(OC)c(OC)c6)nc5c4)nc3c2)CC1 | SRB | 10 µM, 48 h | – | growth percent | 55.1%
O=C(NOC[C@H](O)CO)c1ccc(F)c(F)c1Nc1ccc(I)cc1F | – | 0.03906 µM, 72 h | – | viability | 99.3%
O=C(O)c1ccc(Nc2c(-c3ccccc3)nc3cnccn23)cc1C(=O)O | cell viability | 72 h, added: camptothecin | direction not given | synergy score | 4
CCCN1CCN(c2ccc3nc(-c4ccc5nc(-c6cc(OC)ccc6OC)[nH]c5c4)[nH]c3c2)CC1 | SRB | 10 µM, 48 h | – | growth percent | -57.3%
CCN1C(=O)C(C)SC1=NN=C(C)c1c(O)c2ccccc2oc1=O (centres unmarked) | cell growth, MTT | – | relative to: IC50 BJ-1 over HCT-116 | selectivity index | > 2.23
NC(=O)NOCCCC[P+](c1ccccc1)(c1ccccc1)c1ccccc1.O=C([O-])C(F)(F)F | cell growth, live-cell imaging | 100 µM, control at 90% confluence | – | cell confluence | 92.4%
O=[N+]([O-])c1cc(Br)c(O)c(C=NNc2ccc(C(F)(F)F)cc2)c1 | Muse cell cycle | IC50, 24 h | – | cells in S phase | 27.3%
O=c1ccn(Cc2cn(-c3cc4ccccc4oc3=O)nn2)c(=O)[nH]1 | NCI60 single-dose screen | 10 µM | – | growth percentage | 100%
COc1cccc2c1C(=O)c1c(O)c3c(c(O)c1C2=O)C[C@@](O)(C(=O)CO)C[C@@H]3O[C@H]1C[C@H](N)[C@H](O)[C@H](C)O1 | annexin V-FITC/PI | IC50, 24 h | – | necrotic cells | 4.61%
COc1ccc2cc(/C=N/n3c(C)nc4ccc(Br)cc4c3=O)ccc2c1 | cytotoxicity, LDH release | 24 h, 50% viability reduction | – | IC50 | 553 ± 11.7 µM
O=c1ccn(Cc2cn(-c3c4ccccc4nc4ccccc34)nn2)c(=O)[nH]1 | NCI60 single-dose screen | 10 µM | – | growth percentage | 92.4%
NC(=O)NOCCCCCCCCCCCCCC[P+](c1ccccc1)(c1ccccc1)c1ccccc1.O=C([O-])C(F)(F)F | cell growth, live-cell imaging | 0.75 µM, control at 90% confluence | – | cell confluence | 51.6%
O=[N+]([O-])c1ccc(O)c(C=NNc2ccc(Br)cc2)c1 | Muse cell cycle | IC50, 24 h | – | cells in S phase | 19%
NC(=O)NOCCCCCCCCCCCCCCCC[P+](c1ccccc1)(c1ccccc1)c1ccccc1.O=C([O-])C(F)(F)F | cell growth, live-cell imaging | 0.03 µM, control at 90% confluence | – | cell confluence | 87.6%
NNc1nc(-c2ccc(Cl)cc2)c2c(NC(=O)c3ccccc3)nnc-2[nH]1 | SRB | 10 µM, NCI60 single-dose screen, colon cancer | relative to: untreated | cell growth | 98.8%
Cn1cnc2c(F)c(Nc3ccc(Br)cc3F)c(C(=O)NOCCO)cc21 | – | 0.625 µM, 72 h | – | viability | 43.7%

Structure (SMILES) | test | conditions | how to read | quantity | value
NC(=O)NO | cell growth, live-cell imaging | 150 µM, control at 90% confluence | – | cell confluence | 48.6 ± 9.11%
O=[N+]([O-])c1cc(I)c(O)c(C=NNc2ccccc2)c1 | annexin V | IC50 | – | early apoptotic cells | 19.9%
CCOC(=O)c1sc(=NN=C(C)c2c(O)c3ccccc3oc2=O)[nH]c1C | cell growth, MTT | – | relative to: IC50 BJ-1 over HCT-116 | selectivity index | > 4.9
Cc1cc(=O)[nH]n1-c1nc(-c2ccc(Cl)cc2)c2c(NC(=O)c3ccccc3)nnc-2[nH]1 | SRB | 10 µM, NCI60 single-dose screen, colon cancer | relative to: untreated | cell growth | 88.3%
O=P1(C2CCCCC2)CCCCC1 | ELISA | IC50, 72 h | – | IL-6 level | 4 ± 0.36 pg/mL
NC(=O)NOCCCCCCCCCCCCCCCCCCCC[P+](c1ccccc1)(c1ccccc1)c1ccccc1.O=C([O-])C(F)(F)F | cell growth, live-cell imaging | 0.01 µM, control at 90% confluence | – | cell confluence | 89.9 ± 2.91%
CCCCN1CCN(c2ccc3[nH]c(-c4ccc5[nH]c(-c6ccc(OCC)cc6)nc5c4)nc3c2)CC1 | SRB | 10 µM, 48 h | – | growth percent | 21.1%
COc1nc(NCc2cn(-c3ccc(C(=O)Nc4ccc(C(F)(F)F)cc4)cc3)nn2)nc(OC)n1 | flow cytometry | IC50, 24 h | relative to: untreated | G0/G1 phase cells | 1.14 fold
O=C(Nc1nnc2n3c(=S)[nH][nH]c3nc(-c3ccc(Cl)cc3)c1-2)c1ccccc1 | SRB | 10 µM, NCI60 single-dose screen, colon cancer | relative to: untreated | cell growth | 92.7%
OC1CCC(Oc2cccc3cnc(Nc4ccc5nc[nH]c5c4)nc23)CC1 (centres unmarked) | RT-qPCR, item: TNIK mRNA | concentration not given, 24 h | relative to: GAPDH | mRNA level | decreased
COc1nc(NCc2cn(-c3ccc(C(=O)Nc4ccccc4)cc3)nn2)nc(OC)n1 | flow cytometry | IC50, 24 h | – | cell cycle phase %S | 39.2%
NC(=O)NOCCCCCCCCCC[P+](c1ccccc1)(c1ccccc1)c1ccccc1.O=C([O-])C(F)(F)F | cell growth, live-cell imaging | 20 µM, control at 90% confluence | – | cell confluence | 3.45%
CCn1cc(-c2cc(Cn3ccnc3)cc3c2CCN([C@H](c2cc(OC)ccn2)C2CC2)C3=O)c(C(F)(F)F)n1 | cell growth, inhibitor | 120 h | – | EC50 | > 30 µM
CC(=NN=c1sc(N=Nc2ccccc2)c(C)n1C)c1c(O)c2ccccc2oc1=O | cell growth, MTT | – | relative to: IC50 BJ-1 over HCT-116 | selectivity index | > 2.64
NC(=O)NOCCCCCCCCCCCC[P+](c1ccccc1)(c1ccccc1)c1ccccc1.O=C([O-])C(F)(F)F | cell growth, live-cell imaging | 5 µM, control at 90% confluence | – | cell confluence | 3.1 ± 0.62%
COc1cccc2c1C(=O)c1c(O)c3c(c(O)c1C2=O)C[C@@](O)(C(=O)CO)C[C@@H]3O[C@H]1C[C@H](N)[C@H](O)[C@H](C)O1 | flow cytometry | 3.66 µM (IC50), 72 h | – | cells in G0/G1 phase | 33.6%

Excerpt of the above:
Structure (SMILES) | test | conditions | how to read | quantity | value
NNc1nc(-c2ccc(Cl)cc2)c2c(NC(=O)c3ccccc3)nnc-2[nH]1 | SRB | 10 µM, NCI60 single-dose screen, colon cancer | relative to: untreated | cell growth | 98.8%
NC(=O)NOCCCCCCCCCC[P+](c1ccccc1)(c1ccccc1)c1ccccc1.O=C([O-])C(F)(F)F | cell growth, live-cell imaging | 20 µM, control at 90% confluence | – | cell confluence | 3.45%
